Measurements from different studies.
Each line is one published result; not all experiments were run side by side. Numbers after ± are the reported error.
UniProt Q6P179, sequence (whole entry, looked up): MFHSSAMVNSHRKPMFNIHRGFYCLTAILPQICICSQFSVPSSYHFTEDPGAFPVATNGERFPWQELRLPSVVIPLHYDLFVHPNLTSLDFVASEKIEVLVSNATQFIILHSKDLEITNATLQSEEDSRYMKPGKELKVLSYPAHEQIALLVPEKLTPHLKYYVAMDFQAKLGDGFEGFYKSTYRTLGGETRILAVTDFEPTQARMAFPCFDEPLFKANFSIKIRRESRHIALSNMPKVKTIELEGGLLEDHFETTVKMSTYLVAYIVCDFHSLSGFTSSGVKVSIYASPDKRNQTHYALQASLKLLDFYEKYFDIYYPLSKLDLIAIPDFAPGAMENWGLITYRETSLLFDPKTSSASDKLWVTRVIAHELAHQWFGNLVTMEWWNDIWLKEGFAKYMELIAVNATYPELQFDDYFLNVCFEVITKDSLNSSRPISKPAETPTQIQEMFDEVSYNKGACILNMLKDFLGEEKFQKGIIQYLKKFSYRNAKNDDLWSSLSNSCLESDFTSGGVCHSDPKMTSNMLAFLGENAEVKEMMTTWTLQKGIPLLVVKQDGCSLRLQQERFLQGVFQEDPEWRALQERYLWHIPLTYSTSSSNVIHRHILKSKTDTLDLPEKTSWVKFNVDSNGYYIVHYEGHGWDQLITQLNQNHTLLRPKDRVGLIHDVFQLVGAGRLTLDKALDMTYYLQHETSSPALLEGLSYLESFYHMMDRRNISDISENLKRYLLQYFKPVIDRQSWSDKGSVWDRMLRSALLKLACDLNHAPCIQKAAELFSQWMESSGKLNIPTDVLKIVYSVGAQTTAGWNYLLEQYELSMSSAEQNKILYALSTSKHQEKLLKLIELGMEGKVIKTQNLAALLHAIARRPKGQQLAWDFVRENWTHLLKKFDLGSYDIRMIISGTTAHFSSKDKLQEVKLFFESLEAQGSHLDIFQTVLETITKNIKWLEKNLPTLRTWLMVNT
UniProt Q9HAW8, sequence (whole entry, looked up): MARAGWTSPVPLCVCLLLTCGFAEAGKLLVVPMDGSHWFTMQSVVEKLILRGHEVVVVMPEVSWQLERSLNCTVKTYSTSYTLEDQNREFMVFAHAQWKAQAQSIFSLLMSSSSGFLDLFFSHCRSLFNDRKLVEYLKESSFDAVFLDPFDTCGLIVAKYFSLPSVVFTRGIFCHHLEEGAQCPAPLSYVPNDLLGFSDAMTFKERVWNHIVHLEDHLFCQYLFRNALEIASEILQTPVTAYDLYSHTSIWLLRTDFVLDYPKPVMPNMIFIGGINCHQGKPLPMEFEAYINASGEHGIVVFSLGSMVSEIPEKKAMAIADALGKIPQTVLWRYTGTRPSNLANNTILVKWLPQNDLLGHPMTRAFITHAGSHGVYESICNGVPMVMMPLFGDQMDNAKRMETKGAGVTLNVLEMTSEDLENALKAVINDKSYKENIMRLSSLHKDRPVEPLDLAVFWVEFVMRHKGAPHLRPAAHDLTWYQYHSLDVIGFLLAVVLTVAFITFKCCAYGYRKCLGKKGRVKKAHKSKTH
UniProt P08684, sequence (whole entry, looked up): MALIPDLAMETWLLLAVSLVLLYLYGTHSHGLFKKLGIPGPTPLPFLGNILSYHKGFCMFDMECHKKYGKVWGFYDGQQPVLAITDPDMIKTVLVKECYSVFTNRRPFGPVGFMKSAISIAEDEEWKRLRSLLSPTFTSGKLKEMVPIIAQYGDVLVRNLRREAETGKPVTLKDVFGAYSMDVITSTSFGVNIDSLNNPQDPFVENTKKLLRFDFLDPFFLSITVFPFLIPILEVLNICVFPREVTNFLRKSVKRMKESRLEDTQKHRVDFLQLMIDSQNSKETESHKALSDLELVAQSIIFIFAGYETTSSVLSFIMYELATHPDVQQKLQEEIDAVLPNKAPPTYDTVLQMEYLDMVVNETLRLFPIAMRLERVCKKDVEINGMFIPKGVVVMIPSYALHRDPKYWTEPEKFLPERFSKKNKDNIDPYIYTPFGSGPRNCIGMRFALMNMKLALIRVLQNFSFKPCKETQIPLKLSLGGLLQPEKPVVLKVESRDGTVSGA
UniProt P31423, sequence (whole entry, looked up): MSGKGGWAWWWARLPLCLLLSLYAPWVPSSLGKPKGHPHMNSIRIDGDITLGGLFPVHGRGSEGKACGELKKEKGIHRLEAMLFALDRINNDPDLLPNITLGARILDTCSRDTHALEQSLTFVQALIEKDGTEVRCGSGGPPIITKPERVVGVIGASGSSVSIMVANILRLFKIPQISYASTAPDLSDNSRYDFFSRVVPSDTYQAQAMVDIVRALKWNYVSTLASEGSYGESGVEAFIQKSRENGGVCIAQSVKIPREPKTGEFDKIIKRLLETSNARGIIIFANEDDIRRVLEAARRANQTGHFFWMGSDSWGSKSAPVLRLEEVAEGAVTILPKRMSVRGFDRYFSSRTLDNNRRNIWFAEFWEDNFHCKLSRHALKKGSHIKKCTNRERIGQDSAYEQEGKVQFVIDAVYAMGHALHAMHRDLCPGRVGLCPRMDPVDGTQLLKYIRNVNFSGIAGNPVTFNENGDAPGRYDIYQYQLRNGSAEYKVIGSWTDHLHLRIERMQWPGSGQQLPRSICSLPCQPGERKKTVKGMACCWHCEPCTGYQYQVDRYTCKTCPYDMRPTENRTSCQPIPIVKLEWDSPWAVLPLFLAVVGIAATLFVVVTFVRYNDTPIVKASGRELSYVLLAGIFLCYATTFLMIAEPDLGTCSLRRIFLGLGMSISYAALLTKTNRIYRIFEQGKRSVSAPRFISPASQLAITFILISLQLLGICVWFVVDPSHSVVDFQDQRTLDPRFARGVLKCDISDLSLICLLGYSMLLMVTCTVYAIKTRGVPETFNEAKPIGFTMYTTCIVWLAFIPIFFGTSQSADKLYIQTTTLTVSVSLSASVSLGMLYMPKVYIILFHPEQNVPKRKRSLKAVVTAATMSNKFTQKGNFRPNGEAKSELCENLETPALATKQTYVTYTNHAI

[64Cu+2].c1cnc(CNCc2ccc(CN3CCCN4CCNCCCN(CC4)CC3)cc2)nc1 has a tissue uptake of 3.98 ± 0.34 %ID/g (CXCR4 (human); NOD/SCID mice, U87 xenografts, small intestine; 450 min post-injection).
O=C(O)[C@H]1O[C@@H](O[C@H]2C=Cc3c(cc4ccc5cccc6c7ccccc7c3c4c56)[C@@H]2O)[C@H](O)[C@@H](O)[C@@H]1O gave a Km of 66 ± 19 µM (UGT1A10 (Homo sapiens, UniProt Q9HAW8); substrate).
For O=C([O-])CN1CCN(CC(=O)[O-])CCN(Cc2cccc(C(=O)[O-])n2)CC1.[Cu+2], the peak separation was 103 mV (copper(II/I) couple; cyclic voltammetry; pH 5).
With O=C(NO)c1ccc(CN2CCCCc3ccccc32)c([18F])c1 the peak SUV was 1.3 (Histone deacetylase 6 (Macaca mulatta, UniProt H9ER82); male rhesus macaque, whole brain; intravenous, 5.07 mCi, baseline).
CNC(=S)N/N=C/c1ccccn1 — result for “log stability constant”: 15.9 (Mn2+ complex; potentiometric titration; 25 °C).
For N#CCc1cccc(Cl)c1-c1ccc2[nH][11c](=O)[nH]c2c1, “brain uptake increase” read 282% (P-glycoprotein and Bcrp; ex vivo brain uptake; mouse; injection, 30 min, with: tariquidar and Ko143; relative to: without inhibitors).
With O=C([O-])c1cccc(CN2CCNCCNCC2)n1.[Cu+2] the peak separation was 64 mV (copper(II/I) couple; cyclic voltammetry; pH 5).
For NC(=O)N/N=C/c1ccccn1, “log stability constant” read 16.1 (Mn2+ complex; potentiometric titration; 25 °C).
O=C(O)[C@@H]1C[C@@H](O)CN1C(=O)[C@@H]1CCCN1 has a −ΔG of 0.00478 kcal/mol (iron(III) ion; complex formation, from log β; aqueous 0.15 M NaCl; 25 °C, MAH−2 complex species).
Under “lipophilic ligand efficiency”, O=C(C[C@H](Cc1ccc(O)cc1)n1cc(CNS(=O)(=O)c2ccc(-c3ccccc3)s2)nn1)NO is recorded as 2.4 (ERAP2 (Homo sapiens, UniProt Q6P179); inhibitor).
For NC(=S)N/N=C/c1ccccc1O, “log stability constant” read 18 (Cu2+ complex; potentiometric titration; 25 °C).
For COc1ccc(/C=C/c2ccc(-c3ccc(C)cn3)nc2)cc1, “emission wavelength shift” read 53 nm (zinc(II); neutral aqueous solution; zinc saturation; relative to: zinc-free ligand, positive = red shift).
C=CC(=O)Nc1cc(Nc2nccc(-c3cn(C)c4ccccc34)n2)c(OCC(F)(F)F)nc1N(C)CCN(C)C gave a compound metabolised of no less than 78% (Cytochrome P450 3A4 (CYP3A4, Homo sapiens, UniProt P08684); substrate; recombinant enzyme; 3 µM, 1 h).
For O=c1c(/C=N/NC(=S)N/N=C/c2cc(Cl)ccc2O)coc2ccccc12, “log stability constant” read 16.3 (Mn2+ complex; potentiometric titration; 25 °C).
O=C(Nc1ccc(N2C(=O)c3cccc([18F])c3C2=O)c(Cl)c1)c1ccccn1 — result for “time of brain uptake and washout”: no more than 20 min (Grm4 (Rattus norvegicus, UniProt P31423); PET; Sprague-Dawley rat, male; intravenous, 37 MBq).
O=c1c(/C=N/NC(=S)N/N=C/c2ccccn2)coc2ccccc12 — result for “log stability constant”: 19.5 (Cu2+ complex; potentiometric titration; 25 °C).
The efflux ratio of COc1cccc2c1C(=O)c1c(O)c3c(c(O)c1C2=O)CC(O)(C(=O)CO)CC3OC1CC(NC(=O)C[C@H](N)C(=O)O)C(O)C(C)O1 (stereo partly shown) is reported as 1.3 ± 0.11 (P-glycoprotein (MDR1); MDCK-MDR1; 50 µg/mL, 60 min; relative to: Papp(B-A) over Papp(A-B)).
NC(=S)N/N=C/c1ccccn1: “log stability constant” 17.6 (Mn2+ complex; potentiometric titration; 25 °C).
[64Cu+2].c1ccc(CNCc2ccc(CN3CCCN4CCNCCCN(CC4)CC3)cc2)nc1 has a tissue uptake of 101 ± 8.94 %ID/g (CXCR4; NOD/SCID mouse, U87 and U87-stb-CXCR4 xenografts, liver; iv, 240 min, ex vivo).

For quick reference, copied from above:
For N#CCc1cccc(Cl)c1-c1ccc2[nH][11c](=O)[nH]c2c1, “brain uptake increase” read 282% (P-glycoprotein and Bcrp; ex vivo brain uptake; mouse; injection, 30 min, with: tariquidar and Ko143; relative to: without inhibitors).
O=C(O)[C@H]1O[C@@H](O[C@H]2C=Cc3c(cc4ccc5cccc6c7ccccc7c3c4c56)[C@@H]2O)[C@H](O)[C@@H](O)[C@@H]1O gave a Km of 66 ± 19 µM (UGT1A10 (Homo sapiens, UniProt Q9HAW8); substrate).
CNC(=S)N/N=C/c1ccccn1 — result for “log stability constant”: 15.9 (Mn2+ complex; potentiometric titration; 25 °C).
